Measured values from different studies.
Parts stem from different laboratories: compare values within a part only.

Sample 1 — technique: protein binding microarray; form: double-stranded DNA, one strand shown; sample: in vitro; tested at: not given; relative to: not given; direction: higher = stronger binding; endpoint: E-score
Target: Histone acetyltransferase KAT6A, winged helix 2, GST fusion (KAT6A, Homo sapiens, UniProt Q92794, residues 85-181)
Notes: 8-mer, flanks averaged, mean of 2 arrays, mostly near background
Target sequence (chain): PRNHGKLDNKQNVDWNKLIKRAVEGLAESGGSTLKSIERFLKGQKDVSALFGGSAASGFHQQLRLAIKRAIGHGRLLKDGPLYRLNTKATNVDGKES
GTACGTCA: -0.266
GAACGTAC: -0.201
AGTCGTGC: -0.112
CTAGAAGC: 0.0135
ACACTAAG: -0.0697
ACTGATCC: -0.077
GAAAATCA: -0.0134
ATGGAAAG: -0.0605
AGGATCCA: -0.113
GATCGTGA: -0.213
ACTGATCG: -0.113
ACCACATG: -0.125
TCCTAGCA: -0.17

Sample 2 — technique: protein-binding microarray; form: double-stranded DNA, one strand shown; sample: in vitro; tested at: 0.8 µM; notes: whole 60-bp probe, no competitor; direction: higher = stronger binding; endpoint: fluorescence intensity
Target: Centromere-binding protein 1, full length, N-terminal tag (CBF1, Saccharomyces cerevisiae, UniProt P17106, residues 1-351)
Sequence of UniProt P17106 (whole entry, looked up): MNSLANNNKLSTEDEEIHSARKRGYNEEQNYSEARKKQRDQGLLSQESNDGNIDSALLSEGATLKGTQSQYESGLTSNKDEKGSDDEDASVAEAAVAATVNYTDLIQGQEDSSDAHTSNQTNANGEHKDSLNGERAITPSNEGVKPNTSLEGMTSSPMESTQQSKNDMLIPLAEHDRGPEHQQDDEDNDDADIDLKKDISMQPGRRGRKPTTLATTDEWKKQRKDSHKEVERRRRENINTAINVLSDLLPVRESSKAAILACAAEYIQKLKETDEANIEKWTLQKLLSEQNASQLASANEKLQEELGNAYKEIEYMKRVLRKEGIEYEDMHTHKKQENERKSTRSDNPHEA
GAATCTAATAACAAGCACGTAGAATATTGGCCATAGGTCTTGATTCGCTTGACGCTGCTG: 520 a.u.
GAAGAACGTAGTATCCACATGCCATCCTCCTTGTAGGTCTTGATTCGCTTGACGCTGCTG: 523 a.u.
GAATATGGAAAGCTTACGCTGATGTAAGTAATGTAGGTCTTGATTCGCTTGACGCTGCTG: 493 a.u.
GAACAAATGCATCTGCAGGTGTACTGCCATTATTAGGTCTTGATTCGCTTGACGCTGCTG: 509 a.u.
CCTAACTACTATACACACGTGAAATAGCTTCGTACAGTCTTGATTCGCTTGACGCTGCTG: 1760 a.u.
CCTAACTACTATAATCAGGTATCATAGCTTCGTACAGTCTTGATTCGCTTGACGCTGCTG: 502 a.u.

Sample 3 — technique: universal PBM; form: double-stranded DNA, one strand shown; sample: in vitro; tested at: not given; direction: higher = stronger binding; endpoint: E-score
Target: Sal-like protein 4, full length isoform B (SALL4, Homo sapiens, UniProt Q9UJQ4-2, residues 1-616)
Notes: 8-mer, flanks averaged, mean of replicates
Construct (chain): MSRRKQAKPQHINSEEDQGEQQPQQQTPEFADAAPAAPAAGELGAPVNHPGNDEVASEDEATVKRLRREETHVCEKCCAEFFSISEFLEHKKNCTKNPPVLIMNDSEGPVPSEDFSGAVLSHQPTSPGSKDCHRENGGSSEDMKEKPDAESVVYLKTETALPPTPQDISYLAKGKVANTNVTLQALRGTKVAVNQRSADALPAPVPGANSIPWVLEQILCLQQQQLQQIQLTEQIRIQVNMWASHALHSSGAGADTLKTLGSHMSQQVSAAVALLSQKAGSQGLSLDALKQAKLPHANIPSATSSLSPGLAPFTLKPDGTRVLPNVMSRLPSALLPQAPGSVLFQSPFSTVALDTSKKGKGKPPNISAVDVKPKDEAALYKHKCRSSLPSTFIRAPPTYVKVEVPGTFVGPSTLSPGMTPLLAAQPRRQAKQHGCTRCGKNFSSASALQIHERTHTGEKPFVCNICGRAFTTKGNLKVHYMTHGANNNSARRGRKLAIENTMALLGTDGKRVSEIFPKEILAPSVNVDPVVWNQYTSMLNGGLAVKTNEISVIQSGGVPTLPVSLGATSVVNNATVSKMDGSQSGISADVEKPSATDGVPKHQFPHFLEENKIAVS
AAAGCACA: 0.0417
CTAGGTTA: 0.115
ACCACTAG: 0.0626
CTCCCCTC: -0.301
AGACTGCA: -0.0306
CGCCGGAC: -0.372
TACAGACA: 0.224
CATCGCCA: 0.0022
AGGTATAC: 0.0922
CGGGATAG: -0.102
ACTGGCCA: -0.156
CGCCTTTA: 0.00806

Single results of other studies
PhoQ, residues 284 288 289 292 302 303 TASMAF
fold induction (PhoP, residues 12 14 15 18 19 NQFFI (Escherichia coli, UniProt P23836); Sort-seq, refers to: YFP reporter; E. coli; PhoQ-PhoP variant library, together with: 10 µM Mg2+; relative to: high Mg2+ state, higher = stronger signaling): 11.8

Excerpt of the above (sample 1):
GTACGTCA: -0.266
ACTGATCC: -0.077
TCCTAGCA: -0.17
AGGATCCA: -0.113
